{"data": "Experimental data collected from several papers", "method": "steady-state kinetics", "B1": "anthranilate synthase (Streptomyces venezuelae, UniProt O30589); chain MDLSRLLDPSCPPFALLRRRTPGRDHDTVEVLIGRVHEAERLAELPVGPLPALALVPFRQIRERGFDVRDDGTPLSVLVAEETHTLPLAEALDRLPAHDVTVEDGGFDVSDEEYAGIVRRVIDEEIGSGEGANFVIRRTYTGEIPGFGRADALALFRRLLAGERGAYWTFVVHTGDRTLVGASPEVHVRMSGGTVVMNPISGTYRYPAGAAPTAEGLLAFLADRKETEELSMVVDEELKMMCTVGDMGGVVIGPRLKEMAHLAHTEYELRGRSSLDVREVLRETMFAATVTGSPVQNACRVIERHEVGGRGYYAGALALLGTDENGAQSLDSPILIRTADIAADGHLRVPVGATLVRHSDPAGEVAETHAKAAGVLTALGVREGRPAGGPAPAPTALADDPRVRAALDARRADLAPFWLRMQVRSAELSGHALVIDAEDTFTAMLAHVLRSSGLDVSVLRYDEPGLRELALAHEGPVVLGPGPGNPSDAADPKMRFLRALTADLVRDHRHGLLGVCLGHELIAAELGLEIVRKRTPFQGAQMRIDLFGQERTVGFYNSFTARCDERTATELALHRIEVSRDAETGEVHALRGPGFAGVQFHPESVLTTDGAALTASLLAGVLV", "B2": "Nudt8 (Mus musculus, UniProt Q9CR24); chain MLPDGLSAEDEQRCRQLLARTTARLRSRPAAAAVLVPLCLVRGVPALLYTLRSSRLVGRHKGEVSFPGGKCDPDDQDVIHTALRETQEELGLEVPKEHVWGVLQPVYDREKATIVPVLANVGPLDLQSLRPNLEEVDEVFEMSLAHLLQTQNQGYTHFCQGGHFSYTLPVFLHGPHRVWGLTAVITELTLKLLAPGFYQPSLAVPELPRG", "B3": "enzyme (Candida albicans, UniProt A0A1D8PHX1); chain MISIIQNGISQLSSVSGLDEANLKILICTLLSFPFGIIFKRLPDHDYTLKNIYNVAVSCFYVFGICDLRFGISTLLISATGSYFITRYVRTKSMPWINFLFLMIHMAYSHFHLQFFKEYDPKSIDITGAQMILVMKLSAFGWNIHDGKQPRSTLNDFNKARAITKHPNVLPYIGYVFFYASLLTGPAFDYADYDKFIHGTLFDDVPQDKRPGKNKRRIPRSGVQAFKKFSLGFFWAFLLLQSDKFVTMEYMFSPEFVQYHGLFYRIIYMWILGFTFRLKYYTIWTIAEGACILCGIGYNGVDPETGEFKWNRVQNIDPWSFETGQNVHACLEAWNQNTNIWLKNYVYLRVAKPGKKPGFKSTIFTFTTSAFWHGTRPGYYLTFVVGALMQTVGKYYRRNFRPIFLEADGKTPKPTKIVYDFVCWVNTQLAFGFFVQPFVILGFTKSLECWATVYYWLLWVIAISFFAFSGPFAKSVSKFFKSLQPSYREQQRKSREDKYKLNNEEASIVEQAVGAKLGQDYDIPALGLPPFDVFTDFDQTEVDHDIQHLRKAWTSFRGRRGSITENDFDGLKDAYNNFTNEINDIFNTKKEEFKKEKLNKQN", "B4": "enzyme S124A (Arabidopsis thaliana, UniProt O82390); chain MNARALLCSSNIHSLYTSNRPPEKTSSSRSLRNLKPSPKSLRVWIYPRNRSSVFRVLVRSSDKSESSNSYYVEGDKVSGNNDVVSDSPSSIVLPWWEEFPKRWVIVLLCFSAFLLCNMDRVNMAIAILPMSAEYGWNPATVGLIQSSFFWGYLLTQIAGGIWADTVGGKRVLGFGVIWWSIATILTPVAAKLGLPYLLVVRAFMGVGEGVAMPAMNNILSKWVPVQERSRSLALVYSGMYLGSVTGLAFSPFLIHQFGWPSVFYSFGSLGTVWLTLWLTKAESSPLEDPTLLPEERKLIADNCASKEPVKSIPWRLILSKPPVWALISCHFCHNWGTFILLTWMPTYYHQVLKFNLMESGLLSVFPWMTMAISANAGGWIADTLVSRGFSVTNVRKIMQTIGFLGPAFFLTQLKHIDSPTMAVLCMACSQGTDAFSQSGLYSNHQDIAPRYSGVLLGLSNTAGVLAGVLGTAATGHILQHGSWDDVFTISVGLYLVGTVIWNLFSTGEKIID", "B5": "Mj-MAT W387F/Y49W (Methanocaldococcus jannaschii, UniProt Q58605); chain MRNIIVKKLDVEPIEERPTEIVERKGLGHPDSICDGIAESVSRALCKMWMEKFGTILHHNTDQVELVGGHAYPKFGGGVMVSPIYILLSGRATMEILDKEKNEVIKLPVGTTAVKAAKEYLKKVLRNVDVDKDVIIDCRIGQGSMDLVDVFERQKNEVPLANDTSFGVGYAPLSTTERLVLETERFLNSDELKNEIPAVGEDIKVMGLREGKKITLTIAMAVVDRYVKNIEEYKEVIEKVRKKVEDLAKKIADGYEVEIHINTADDYERESVYLTVTGTSAEMGDDGSVGRGNRVNGLITPFRPMSMEAASGKNPVNHVGKIYNILANLIANDIAKLEGVKECYVRILSQIGKPINEPKALDIEIITEDSYDIKDIEPKAKEIANKFLDNIMEVQKMIVEGKVTTF", "B6": "CT1526 (Chlorobium tepidum, UniProt Q8KC98); chain MSDLDVIRQIEQELGMQLEPVDKLKWYSKGYKLDKDQRVTAIGLYDCGSDTLDRIIQPLESLKSLSELSLSSNQITDISPLASLNSLSMLWLDRNQITDIAPLASLNSLSMLWLFGNKISDIAPLESLKSLTELQLSSNQITDIAPLASLKSLTELSLSGNNISDIAPLESLKSLTELSLSSNQITDIAPLASLKSLTELSLSSNQISDIAPLESLKSLTELQLSRNQISDIAPLESLKSLTELQLSSNQITDIAPLASLKSLTELQLSRNQISDIAPLESLNSLSKLWLNGNQITDIAPLASLNSLTELELSSNQITDIAPLASLKSLSTLWLSSNQISDIAPLASLESLSELSLSSNQISDISPLASLNSLTGFDVRRNPIKRLPETITGFDMEILWNDFSSSGFITFFDNPLESPPPEIVKQGKEAVRQYFQSIEEARSKGEALVHLQEIKVHLIGDGMAGKTSLLKQLIGETFDPKESQTHGLNVVTKQAPNIKGLENDDELKECLFHFWDFGGQEIMHASHQFFMTRSSVYMLLLDSRTDSNKHYWLRHIEKYGGKSPVIVVMNKIDENPSYNIEQKKINERFPAIENRFHRISCKNGDGVESIAKSLKSAVLHPDSIYGTPLAPSWIKVKEKLVEATTAQRYLNRTEVEKICNDSGITDPGERKTLLGYLNNLGIVLYFEALDLSEIYVLDPHWVTIGVYRIINSSKTKNGHLNTSALGYILNEEQIRCDEYDPAKNNKFTYTLLEQRYLLDIMKQFELCYDEGKGLFIIPSNLPTQIDNEPEITEGEPLRFIMKYDYLPSTIIPRLMIAMQHQILDRMQWRYGMVLKSQDHEGALAKVVAETKDSTITIAIQGEPRCKREYLSIIWYEIKKINANFTNLDVKEFIPLPGHPDELVEYKELLGLEKMGRDEYVSGKLEKVFSVSKMLDSVISKEERNKERLMGDINIKLENIGNPTIPIHQQVEVNVSQETVQHVENLQGFFENLKADILREAELEIDDPKERKRLANELELAENAITKMDAAVKSGKNKLKPDVKDRLGEFIDNLANENSRLRKGIALVMNGAEKVQKLARYYNNVAPFFDLPSVPPVLLGKEKT", "B7": "Comt (Mus musculus, UniProt O88587); chain MLLAAVSLGLLLLAFLLLLRHLGWGLVAIGWFEFVQQPVHNLLMGGTKEQRILRHVQQHAKPGDPQSVLEAIDTYCSEKEWAMNVGDAKGQIMDAVIREYRPSLVLELGAYCGYSAVRMARLLPPGARLLTMEINPDYAAITQQMLDFAGLQDKVSILIGASQDLIPQLKKKYDVDTLDMVFLDHWKDRYLPDTLLLEECGLLRKGTVLLADNVIVPGTPDFLAYVRGSSSFECTHYSSYLEYMKVVDGLEKAVYQGPGSSPVKS", "B8": "cyc1 A236G (Streptomyces coelicolor, UniProt Q9K499); chain MHAFPHGTTATPTAIAVPPSLRLPVIEAAFPRQLHPYWPKLQETTRTWLLEKRLMPADKVEEYADGLCYTDLMAGYYLGAPDEVLQAIADYSAWFFVWDDRHDRDIVHGRAGAWRRLRGLLHTALDSPGDHLHHEDTLVAGFADSVRRLYAFLPATWNARFARHFHTVIEAYDREFHNRTRGIVPGVEEYLELRRLTFAHWIWTDLLEPSSGCELPDAVRKHPAYRRAALLSQEFGAWYNDLCSLPKEIAGDEVHNLGISLITHHSLTLEEAIGEVRRRVEECITEFLAVERDALRFADELADGTVRGKELSGAVRANVGNMRNWFSSVYWFHHESGRYMVDSWDDRSTPPYVNNEAAGEK", "note": "Each line is one published result; not all experiments were run side by side.", "UniProt P19337, sequence (whole entry, looked up)": "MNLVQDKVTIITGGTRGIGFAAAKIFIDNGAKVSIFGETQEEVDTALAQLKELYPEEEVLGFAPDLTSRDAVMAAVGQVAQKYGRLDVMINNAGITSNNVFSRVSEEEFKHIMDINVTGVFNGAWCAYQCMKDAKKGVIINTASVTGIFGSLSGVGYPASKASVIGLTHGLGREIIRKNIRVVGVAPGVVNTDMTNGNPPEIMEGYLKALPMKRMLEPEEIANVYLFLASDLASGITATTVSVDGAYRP", "UniProt P06757, sequence (whole entry, looked up)": "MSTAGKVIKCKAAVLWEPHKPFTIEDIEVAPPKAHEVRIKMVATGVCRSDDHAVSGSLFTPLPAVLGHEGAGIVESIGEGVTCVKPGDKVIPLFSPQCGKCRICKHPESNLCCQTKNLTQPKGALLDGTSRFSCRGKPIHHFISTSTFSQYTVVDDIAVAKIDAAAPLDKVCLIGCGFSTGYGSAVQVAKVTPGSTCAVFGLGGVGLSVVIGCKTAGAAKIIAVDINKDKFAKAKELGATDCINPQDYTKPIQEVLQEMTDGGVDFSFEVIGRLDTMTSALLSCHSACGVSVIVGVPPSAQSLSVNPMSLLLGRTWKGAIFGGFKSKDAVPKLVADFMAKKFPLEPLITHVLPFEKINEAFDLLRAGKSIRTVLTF", "UniProt P10724, sequence (whole entry, looked up)": "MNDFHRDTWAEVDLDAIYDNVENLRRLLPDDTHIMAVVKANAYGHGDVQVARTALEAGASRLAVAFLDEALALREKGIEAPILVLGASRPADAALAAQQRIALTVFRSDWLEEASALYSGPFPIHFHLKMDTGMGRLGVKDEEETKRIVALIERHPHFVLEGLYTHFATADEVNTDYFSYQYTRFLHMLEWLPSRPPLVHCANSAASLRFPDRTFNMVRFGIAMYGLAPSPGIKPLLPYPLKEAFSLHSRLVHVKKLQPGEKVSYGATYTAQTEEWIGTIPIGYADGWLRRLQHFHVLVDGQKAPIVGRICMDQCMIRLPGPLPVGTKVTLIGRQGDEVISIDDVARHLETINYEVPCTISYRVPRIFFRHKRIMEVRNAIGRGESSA", "UniProt A0A120HUS7, sequence (whole entry, looked up)": "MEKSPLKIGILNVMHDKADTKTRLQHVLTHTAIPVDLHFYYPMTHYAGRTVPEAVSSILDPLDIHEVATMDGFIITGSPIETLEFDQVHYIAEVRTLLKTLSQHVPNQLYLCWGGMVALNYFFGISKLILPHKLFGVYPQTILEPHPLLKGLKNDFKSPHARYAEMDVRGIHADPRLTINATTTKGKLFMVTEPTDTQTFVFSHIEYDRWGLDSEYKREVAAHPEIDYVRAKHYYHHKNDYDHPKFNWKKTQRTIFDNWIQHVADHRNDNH"}
{"Molecule": "B1 (anthranilate synthase)", "substrate": "C=C(O[C@@H]1C=C(C(=O)O)C=C[C@H]1O)C(=O)O", "conditions": "pH 7.5, 30 °C, with: glutamine saturating; MgCl2 12.5 mM", "Km [µM]": 8.2}
{"Molecule": "B2 (Nudt8)", "substrate": "CC(C)(COP(=O)(O)OP(=O)(O)OC[C@H]1O[C@@H](n2cnc3c(N)ncnc32)[C@H](O)[C@@H]1OP(=O)(O)O)[C@@H](O)C(=O)NCCC(=O)NCCSC(=O)CCC(=O)O", "conditions": "pH 8.5, with: 2 mM Mn2+", "Km [µM]": 329}
{"Molecule": "Alanine racemase (Geobacillus stearothermophilus, UniProt P10724)", "substrate": "C[C@@H](N)C(=O)O", "conditions": "pH 8.9, 25 °C, D to L direction", "Km [µM]": 4000}
{"Molecule": "BaiA2 (Clostridium scindens, UniProt P19337)", "substrate": "C[C@H](CCC(=O)SCCNC(=O)CCNC(=O)[C@H](O)C(C)(C)COP(=O)(O)OP(=O)(O)OC[C@H]1O[C@@H](n2cnc3c(N)ncnc32)[C@H](O)[C@@H]1OP(=O)(O)O)[C@H]1CC[C@H]2[C@@H]3CC[C@@H]4CC(=O)CC[C@]4(C)[C@H]3CC[C@]12C", "conditions": "pH 8.7, 37 °C, with: NADH", "Km [µM]": 1.3}
{"Molecule": "B3 (enzyme)", "substrate": "CC/C=C\\C/C=C\\C/C=C\\CCCCCCCC(=O)SCCNC(=O)CCNC(=O)[C@H](O)C(C)(C)COP(=O)(O)OP(=O)(O)OC[C@H]1O[C@@H](n2cnc3c(N)ncnc32)[C@H](O)[C@@H]1OP(=O)(O)O", "conditions": "pH 7.4, 37 °C, apparent, not purified", "Km [µM]": 38.8}
{"Molecule": "B4 (enzyme S124A)", "substrate": "O=P(O)(O)O", "conditions": "pH 6.5, 25 °C, apparent, not purified", "Km [µM]": 44.8}
{"Molecule": "enzyme (Rattus norvegicus, UniProt P06757)", "substrate": "OCCCCCO", "conditions": "pH 7.3, 37 °C", "Km [µM]": 3500}
{"Molecule": "enzyme (Salvia miltiorrhiza, UniProt A0A4Y5RRG0)", "substrate": "Oc1cc(O)c2c(c1)O[C@H](c1ccc(O)c(O)c1)[C@H](O)[C@H]2c1c(O)cc(O)c2c1O[C@H](c1ccc(O)c(O)c1)[C@@H](O)C2", "conditions": "pH 5, 28 °C", "Km [µM]": 32.1}
{"Molecule": "enzyme (Lacticaseibacillus casei, UniProt A0A120HUS7)", "substrate": "CC(=O)SCCNC(=O)CCNC(=O)[C@H](O)C(C)(C)COP(=O)(O)OP(=O)(O)OC[C@H]1O[C@@H](n2cnc3c(N)ncnc32)[C@H](O)[C@@H]1OP(=O)(O)O", "conditions": "pH 7.4, 25 °C", "Km [µM]": 21}
{"Molecule": "B5 (Mj-MAT W387F/Y49W)", "substrate": "CSCC[C@H](N)C(=O)O", "conditions": "55 °C, with: ATP 2.5 mM, methionine 0.05-1 mM", "Km [µM]": 660}
{"Molecule": "B6 (CT1526)", "substrate": "Nc1nc2c(ncn2[C@@H]2O[C@H](COP(=O)(O)OP(=O)(O)OP(=O)(O)O)[C@@H](O)[C@H]2O)c(=O)[nH]1", "conditions": "pH 7.5, 25 °C, NaCl 150 mM, no nanobody", "Km [µM]": 18}
{"Molecule": "B7 (Comt)", "substrate": "O=c1oc2c(O)c(O)ccc2cc1-c1nc2ccccc2s1", "system": "MLS9", "conditions": "pH 7.4, 37 °C", "Km [µM]": 0.63}
{"Molecule": "B8 (cyc1 A236G)", "substrate": "CC(C)=CCC/C(C)=C/CC/C(C)=C/CO[P@@](=O)(O)OP(=O)(O)O", "conditions": "pH 6.5, 30 °C, with: MgCl2 10 mM", "Km [µM]": 0.45}
{"note": "Excerpt of the above:"}
{"Molecule": "B6 (CT1526)", "substrate": "Nc1nc2c(ncn2[C@@H]2O[C@H](COP(=O)(O)OP(=O)(O)OP(=O)(O)O)[C@@H](O)[C@H]2O)c(=O)[nH]1", "conditions": "pH 7.5, 25 °C, NaCl 150 mM, no nanobody", "Km [µM]": 18}
{"Molecule": "B7 (Comt)", "substrate": "O=c1oc2c(O)c(O)ccc2cc1-c1nc2ccccc2s1", "system": "MLS9", "conditions": "pH 7.4, 37 °C", "Km [µM]": 0.63}
